{"data": "Measurements collected from several papers", "cell line": "CAKI-1", "note": "Compare with care: the assays were run in different laboratories."}
{"SMILES": "O=C1NC(c2ccccc2)(c2ccccc2)C(=O)N1Cc1cn(-c2cc3ccccc3oc2=O)nn1", "test": "NCI60 single-dose screen", "setting": "10 µM", "quantity": "growth percentage", "value": "97.7%"}
{"SMILES": "Cc1cc(C)n(C(=S)[S][Au][PH](CCCCCC[PH]([Au][S]C(=S)n2nc(C)cc2C)(c2ccccc2)c2ccccc2)(c2ccccc2)c2ccccc2)n1", "test": "cell growth, NCI-60 screen", "setting": "renal cancer", "quantity": "log10 TGI", "value": "> -4"}
{"SMILES": "COc1cnc2cccc(N3CCc4c(cc(Cn5ccnc5C)cc4-c4cn(C)nc4C(F)(F)F)C3=O)c2c1", "test": "cell growth, inhibitor", "setting": "120 h", "quantity": "EC50", "value": "0.0402 µM"}
{"SMILES": "CSc1nc(-c2ccc(Cl)cc2)c2c(NC(=O)c3ccccc3)nnc-2[nH]1", "test": "SRB", "setting": "10 µM, NCI60 single-dose screen", "scale": "relative to: untreated", "quantity": "cell growth", "value": "73.2%"}
{"SMILES": "Cc1cc(=O)[nH]c(=O)n1Cc1cn(-c2c3ccccc3nc3ccccc23)nn1", "test": "NCI60 single-dose screen", "setting": "10 µM", "quantity": "growth percentage", "value": "91%"}
{"SMILES": "O=C(Nc1nnc2n3c(Cc4ccccc4)n[nH]c3nc(-c3ccc(Cl)cc3)c1-2)c1ccccc1", "test": "SRB", "setting": "10 µM, NCI60 single-dose screen", "scale": "relative to: untreated", "quantity": "cell growth", "value": "89.1%"}
{"SMILES": "CN1CCN(c2ccc3[nH]c(-c4ccc5[nH]c(-c6ccc(C(F)(F)F)cc6)nc5c4)nc3c2)CC1", "test": "SRB", "setting": "10 µM, 48 h", "quantity": "growth percent", "value": "43%"}
{"SMILES": "O=C(Nc1nnc2n3c(nc(-c4ccc(Cl)cc4)c1-2)SCC3=O)c1ccccc1", "test": "SRB", "setting": "10 µM, NCI60 single-dose screen", "scale": "relative to: untreated", "quantity": "cell growth", "value": "83.8%"}
{"SMILES": "CC(=O)OC[C@H]1O[C@@H]([S-])[C@H](OC(C)=O)[C@@H](OC(C)=O)[C@@H]1OC(C)=O.CCP(CC)CC.[Au+]", "test": "cell invasion, 3D Transwell invasion", "setting": "IC20, 24 h", "scale": "relative to: untreated", "quantity": "inhibition", "value": "51%"}
{"SMILES": "O=C1NCCc2[nH]c(-c3ccncc3)cc21", "test": "MTS", "setting": "NCI60 panel", "quantity": "IC50", "value": "> 10 µM"}
{"SMILES": "CCCCN1CCN(c2ccc3[nH]c(-c4ccc5[nH]c(-c6ccc(OCC)cc6)nc5c4)nc3c2)CC1", "test": "SRB", "setting": "10 µM, 48 h", "quantity": "growth percent", "value": "51.2%"}
{"SMILES": "CCOC(=O)CSc1nc(-c2ccc(Cl)cc2)c2c(NC(=O)c3ccccc3)nnc-2[nH]1", "test": "SRB", "setting": "10 µM, NCI60 single-dose screen", "scale": "relative to: untreated", "quantity": "cell growth", "value": "90.5%"}
{"SMILES": "Cn1cncc1C1=CN(c2ncnc3[nH]cnc23)CCS1", "setting": "renal cancer", "quantity": "TGI", "value": "64.6 µM"}
{"SMILES": "CCCN1CCN(c2ccc3[nH]c(-c4ccc5[nH]c(-c6cc(OC)c(OC)c(OC)c6)nc5c4)nc3c2)CC1", "test": "SRB", "setting": "10 µM, 48 h", "quantity": "growth percent", "value": "105%"}
{"SMILES": "O=C(Nc1nnc2[nH]c(=S)[nH]c(-c3ccc(Cl)cc3)c1-2)c1ccccc1", "test": "SRB", "setting": "10 µM, NCI60 single-dose screen", "scale": "relative to: untreated", "quantity": "cell growth", "value": "91%"}
{"SMILES": "CCCCN1CCN(c2ccc3[nH]c(-c4ccc5[nH]c(-c6ccc(C(F)(F)F)cc6)nc5c4)nc3c2)CC1", "test": "SRB", "setting": "10 µM, 48 h", "quantity": "growth percent", "value": "-77.1%"}
{"SMILES": "O=c1ccn(Cc2cn(-c3c4ccccc4nc4ccccc34)nn2)c(=O)[nH]1", "test": "NCI60 single-dose screen", "setting": "10 µM", "quantity": "growth percentage", "value": "96.8%"}
{"SMILES": "Cc1cc(=O)[nH]n1-c1nc(-c2ccc(Cl)cc2)c2c(NC(=O)c3ccccc3)nnc-2[nH]1", "test": "SRB", "setting": "10 µM, NCI60 single-dose screen", "scale": "relative to: untreated", "quantity": "cell growth", "value": "91%"}
{"SMILES": "COc1ccc(OC)c(-c2nc3ccc(-c4nc5ccc(N6CCN(C)CC6)cc5[nH]4)cc3[nH]2)c1", "test": "SRB", "setting": "10 µM, 48 h", "quantity": "growth percent", "value": "106%"}
